# Results pooled from the literature.
# Numbered parts are unrelated; each lists some results of a single study. Substitutions count along the parent as printed.

# Sample 1
# Target: CCNB1, cyclin fold, Cln2 fusion (human)
# Method: yeast growth competition, sequencing
# Matrix: yeast
# Notes: weak parent motif
# Reference: not given
# Reading: higher = stronger binding
# Starting sequence: GMNC docking peptide (human); KNAKRNLSSEFAN
Variant,normalised enrichment score
L7G,0.126
N2M,0.0688
A3E,-0.0751
A12C,0.175

# Sample 2
# Target: Histone acetyltransferase KAT6A, winged helix 1, GST fusion (KAT6A, Homo sapiens, UniProt Q92794, residues 1-85)
# Method: protein binding microarray
# Form: double-stranded DNA, one strand shown
# Matrix: in vitro
# Concentration: not given
# Notes: 8-mer, flanks averaged, mean of 2 arrays, mostly near background
# Reference: not given
# Reading: higher = stronger binding
# Residues (chain): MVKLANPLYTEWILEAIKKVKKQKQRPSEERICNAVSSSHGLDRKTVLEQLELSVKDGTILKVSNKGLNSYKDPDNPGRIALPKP
Sequence,E-score
CCTGGAGA,-0.229
TACTGTCA,-0.0908
ACAGGAAC,-0.191
ACGATGAT,-0.106
ATGTAAAT,-0.0656
CGGCGTGA,0.344

# Sample 3
# Target: Interferon regulatory factor 7, full length, phosphomimetic (IRF7, Homo sapiens, UniProt Q92985, residues 1-503, S101K/S471D/S472D/S475D/S476D/S477D/S483D/S484D/S487D)
# Chain of UniProt Q92985 (whole entry, unmodified, looked up): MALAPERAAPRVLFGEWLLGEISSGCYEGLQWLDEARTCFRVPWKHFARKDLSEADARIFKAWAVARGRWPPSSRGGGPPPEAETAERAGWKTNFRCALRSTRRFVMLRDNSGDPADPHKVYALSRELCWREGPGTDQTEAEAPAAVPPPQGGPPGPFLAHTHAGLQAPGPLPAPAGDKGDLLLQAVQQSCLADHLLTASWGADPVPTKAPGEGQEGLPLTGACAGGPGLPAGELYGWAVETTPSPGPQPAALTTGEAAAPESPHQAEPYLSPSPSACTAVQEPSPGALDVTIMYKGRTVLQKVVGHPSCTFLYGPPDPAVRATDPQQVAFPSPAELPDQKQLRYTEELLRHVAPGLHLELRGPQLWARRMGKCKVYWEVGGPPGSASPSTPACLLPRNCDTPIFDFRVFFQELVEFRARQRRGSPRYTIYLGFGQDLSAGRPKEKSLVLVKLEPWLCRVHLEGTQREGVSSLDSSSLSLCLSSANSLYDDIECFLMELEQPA
# Method: protein-binding microarray
# Form: double-stranded DNA, one strand shown
# Matrix: in vitro
# Concentration: 250 nM
# Notes: 60-bp whole probe
# Together with: salmon DNA 0.4 mg/ml
# Reference: random background probes
# Reading: higher = stronger binding
# Shared flanks, not repeated: GCCTAGCAC … GTCTTGATTCGCTTGACGCTGCTG
Sequence,log fluorescence [z-score]
TTAGGTTTCGACTATCGGTTCGTGCTA,5.07
GACGCTCTCAGTTTCGAGACGTGCTAG,3.63
TTAGGTCTCGGTTTCAGTTAGTGCTAG,7.15
TCACTCGTCTCTATCAAACTGTGCTAG,0.161
TTAGGCCTGGACTTTCGGTTAGTGCTA,0.208

# Single results of other studies
Substance,target,test,system,conditions,scale,quantity,result
"PhoQ, residues 284 288 289 292 302 303 SLSLLA","PhoP, residues 12 14 15 18 19 SGWQI (Escherichia coli, UniProt P23836)","Sort-seq, measured: YFP reporter",E. coli,"PhoQ-PhoP variant library, together with: 10 µM Mg2+","reference: high Mg2+ state, higher = stronger signaling",fold induction,27.4

# A few entries again (sample 2):
Sequence,E-score
ATGTAAAT,-0.0656
CGGCGTGA,0.344
